Published values pooled from the literature.
Numbered parts are unrelated; each lists some results of a single study.
UniProt Q13976, sequence (whole entry, looked up): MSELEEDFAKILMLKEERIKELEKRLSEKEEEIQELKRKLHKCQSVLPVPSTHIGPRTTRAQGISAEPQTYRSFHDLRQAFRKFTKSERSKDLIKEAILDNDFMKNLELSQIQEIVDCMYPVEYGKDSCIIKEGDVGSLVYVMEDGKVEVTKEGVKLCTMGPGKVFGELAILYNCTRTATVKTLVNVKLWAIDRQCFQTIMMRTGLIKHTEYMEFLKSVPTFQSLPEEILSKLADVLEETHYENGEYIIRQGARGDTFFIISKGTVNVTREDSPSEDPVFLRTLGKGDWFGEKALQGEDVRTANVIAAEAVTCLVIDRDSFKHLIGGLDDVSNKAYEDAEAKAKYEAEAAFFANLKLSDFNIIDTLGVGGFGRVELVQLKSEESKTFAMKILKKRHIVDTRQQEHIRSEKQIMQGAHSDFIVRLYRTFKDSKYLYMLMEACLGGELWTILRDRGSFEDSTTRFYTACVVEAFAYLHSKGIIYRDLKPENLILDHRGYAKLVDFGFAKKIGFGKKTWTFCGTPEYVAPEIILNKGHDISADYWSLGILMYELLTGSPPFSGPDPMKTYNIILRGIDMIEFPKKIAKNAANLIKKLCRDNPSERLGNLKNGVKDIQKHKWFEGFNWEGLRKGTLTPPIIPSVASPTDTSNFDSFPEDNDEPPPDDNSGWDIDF
UniProt Q9Y4K4, sequence (whole entry, looked up): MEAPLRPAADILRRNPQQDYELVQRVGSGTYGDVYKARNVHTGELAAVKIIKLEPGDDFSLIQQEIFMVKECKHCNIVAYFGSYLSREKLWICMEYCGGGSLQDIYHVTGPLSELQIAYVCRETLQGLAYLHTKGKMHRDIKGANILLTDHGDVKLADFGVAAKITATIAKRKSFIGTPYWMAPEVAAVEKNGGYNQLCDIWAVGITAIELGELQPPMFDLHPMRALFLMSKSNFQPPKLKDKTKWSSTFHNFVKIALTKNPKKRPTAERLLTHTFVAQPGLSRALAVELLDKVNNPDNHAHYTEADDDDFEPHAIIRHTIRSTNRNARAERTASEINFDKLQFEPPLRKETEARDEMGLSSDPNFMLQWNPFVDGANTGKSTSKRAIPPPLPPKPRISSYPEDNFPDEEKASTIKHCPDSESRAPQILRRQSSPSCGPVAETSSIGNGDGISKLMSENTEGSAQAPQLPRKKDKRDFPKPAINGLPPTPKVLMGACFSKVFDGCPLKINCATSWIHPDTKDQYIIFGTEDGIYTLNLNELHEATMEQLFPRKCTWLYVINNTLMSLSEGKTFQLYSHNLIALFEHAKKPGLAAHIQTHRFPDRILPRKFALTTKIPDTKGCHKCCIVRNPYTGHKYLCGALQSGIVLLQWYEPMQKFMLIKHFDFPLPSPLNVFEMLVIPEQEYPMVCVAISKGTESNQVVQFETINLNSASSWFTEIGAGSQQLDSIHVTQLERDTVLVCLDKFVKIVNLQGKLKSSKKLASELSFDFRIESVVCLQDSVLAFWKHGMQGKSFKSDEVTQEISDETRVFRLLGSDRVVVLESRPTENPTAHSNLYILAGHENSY
UniProt Q13237, sequence (whole entry, looked up): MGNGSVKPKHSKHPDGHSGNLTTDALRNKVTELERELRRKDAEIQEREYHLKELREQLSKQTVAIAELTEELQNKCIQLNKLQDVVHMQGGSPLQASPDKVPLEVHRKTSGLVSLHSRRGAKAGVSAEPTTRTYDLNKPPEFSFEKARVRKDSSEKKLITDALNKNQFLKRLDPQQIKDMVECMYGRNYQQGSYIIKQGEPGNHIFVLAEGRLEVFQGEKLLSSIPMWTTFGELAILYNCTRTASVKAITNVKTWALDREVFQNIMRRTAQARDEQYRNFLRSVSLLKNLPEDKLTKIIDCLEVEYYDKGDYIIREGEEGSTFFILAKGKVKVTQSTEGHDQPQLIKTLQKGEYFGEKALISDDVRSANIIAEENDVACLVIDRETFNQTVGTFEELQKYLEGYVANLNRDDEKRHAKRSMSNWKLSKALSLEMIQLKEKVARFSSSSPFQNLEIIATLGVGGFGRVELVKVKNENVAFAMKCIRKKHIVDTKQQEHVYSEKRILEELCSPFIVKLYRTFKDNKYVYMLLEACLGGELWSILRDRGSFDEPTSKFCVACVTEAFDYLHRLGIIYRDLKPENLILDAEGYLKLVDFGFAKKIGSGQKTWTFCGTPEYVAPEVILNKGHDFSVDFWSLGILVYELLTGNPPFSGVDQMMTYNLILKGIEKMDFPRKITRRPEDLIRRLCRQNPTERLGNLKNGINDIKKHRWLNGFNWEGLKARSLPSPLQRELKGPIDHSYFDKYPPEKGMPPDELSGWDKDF
UniProt P27361, sequence (whole entry, looked up): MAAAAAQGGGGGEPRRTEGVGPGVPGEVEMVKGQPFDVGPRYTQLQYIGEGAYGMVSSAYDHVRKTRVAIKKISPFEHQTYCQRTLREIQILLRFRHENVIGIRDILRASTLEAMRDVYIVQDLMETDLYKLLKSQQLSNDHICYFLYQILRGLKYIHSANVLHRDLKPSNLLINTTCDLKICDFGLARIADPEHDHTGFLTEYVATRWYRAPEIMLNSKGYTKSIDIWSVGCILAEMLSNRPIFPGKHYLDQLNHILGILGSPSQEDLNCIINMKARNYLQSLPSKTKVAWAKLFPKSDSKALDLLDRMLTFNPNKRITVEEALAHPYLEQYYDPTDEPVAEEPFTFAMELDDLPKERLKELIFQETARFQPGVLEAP
UniProt Q6P5Z2, sequence (whole entry, looked up): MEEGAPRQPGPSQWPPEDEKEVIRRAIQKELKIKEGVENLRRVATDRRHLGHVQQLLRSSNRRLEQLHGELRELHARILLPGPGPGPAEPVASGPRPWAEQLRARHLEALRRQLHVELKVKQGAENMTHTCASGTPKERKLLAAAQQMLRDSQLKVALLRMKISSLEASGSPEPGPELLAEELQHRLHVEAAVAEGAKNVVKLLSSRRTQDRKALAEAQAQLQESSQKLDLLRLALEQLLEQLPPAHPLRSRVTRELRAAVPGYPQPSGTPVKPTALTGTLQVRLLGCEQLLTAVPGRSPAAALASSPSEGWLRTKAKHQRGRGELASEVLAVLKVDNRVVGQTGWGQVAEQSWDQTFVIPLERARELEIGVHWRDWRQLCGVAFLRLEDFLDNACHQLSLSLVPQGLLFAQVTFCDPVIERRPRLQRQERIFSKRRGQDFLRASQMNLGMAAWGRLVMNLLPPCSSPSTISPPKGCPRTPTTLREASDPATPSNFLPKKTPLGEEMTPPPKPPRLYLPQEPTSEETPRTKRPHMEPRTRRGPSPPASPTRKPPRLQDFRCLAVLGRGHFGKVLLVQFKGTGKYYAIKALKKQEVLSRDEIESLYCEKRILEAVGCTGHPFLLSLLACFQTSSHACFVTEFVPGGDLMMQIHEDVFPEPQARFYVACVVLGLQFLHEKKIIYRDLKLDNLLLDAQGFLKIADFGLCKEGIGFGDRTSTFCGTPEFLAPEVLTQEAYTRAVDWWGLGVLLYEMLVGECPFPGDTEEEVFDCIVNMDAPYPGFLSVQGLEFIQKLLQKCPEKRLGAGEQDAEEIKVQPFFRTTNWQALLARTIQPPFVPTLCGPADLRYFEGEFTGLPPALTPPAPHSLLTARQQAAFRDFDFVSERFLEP

Block 1
Target: Tyrosine-protein kinase Blk (BLK, Homo sapiens, UniProt P51451)
UniProt P51451, sequence (whole entry, looked up): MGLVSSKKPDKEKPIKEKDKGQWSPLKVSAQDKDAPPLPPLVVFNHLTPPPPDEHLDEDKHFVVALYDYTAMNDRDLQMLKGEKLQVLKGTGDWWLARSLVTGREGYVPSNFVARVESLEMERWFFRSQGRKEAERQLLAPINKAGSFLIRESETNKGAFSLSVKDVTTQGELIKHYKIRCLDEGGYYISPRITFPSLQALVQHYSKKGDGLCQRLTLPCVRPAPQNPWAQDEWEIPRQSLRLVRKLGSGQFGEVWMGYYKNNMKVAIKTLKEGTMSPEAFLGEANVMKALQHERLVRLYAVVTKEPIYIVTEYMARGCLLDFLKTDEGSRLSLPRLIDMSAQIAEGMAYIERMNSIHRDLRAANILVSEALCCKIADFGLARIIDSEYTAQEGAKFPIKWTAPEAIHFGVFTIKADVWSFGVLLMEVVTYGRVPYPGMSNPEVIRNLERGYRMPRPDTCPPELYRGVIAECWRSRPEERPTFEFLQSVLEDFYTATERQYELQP
Effect on: enzyme activity
Action: inhibitor
Tested at: 0.5 µM
Reference: control
| Compound | remaining activity [%] |
| --- | --- |
| C#Cc1cccc(Nc2ncnc3cc(OCCOC)c(OCCOC)cc23)c1 | 79.4 |
| Cc1nc(-c2ccccc2)c(-c2ccncc2)o1 | 95.4 |
| O=S(=O)(c1cccc2cnccc12)N1CCCNCC1 | 85.3 |
| O=C(CCCc1ccc(-c2ccccc2F)cc1)Nc1ccc(O)cc1 | 101 |
| Cc1cccc(-c2[nH]c(C(C)(C)C)nc2-c2ccc3c(c2)OCO3)n1 | 98.5 |
| Nc1ncnc2n[nH]c(Nc3ccc(F)cc3)c12 | 101 |
| Nc1[nH]nc2nc3ccccc3nc12 | 96.6 |
| COc1cc2nccc(Oc3ccc(NC(=S)NC(=O)c4ccccc4C)cc3)c2cc1OC | 8.59 |
| CCOC(=O)c1c(C)[nH]c(/C=C2\C(=O)Nc3ccccc32)c1C | 80.2 |
| CNC(=O)c1cc(Oc2ccc(NC(=O)Nc3ccc(Cl)c(C(F)(F)F)c3)cc2)ccn1 | 99.1 |
| N#CC(C#N)=C(N)/C(C#N)=C/c1ccc(O)cc1 | 101 |
| O=C(O)c1ccc2c3c1cccc3c(=O)n1c3ccccc3nc21 | 100 |
| O=C1NC(=O)C(c2cn(CCCn3ccnc3)c3ccccc23)=C1Nc1ccccc1 | 90.9 |
| COc1ccc(C(=O)Nc2sc3c(c2C(N)=O)CCCC3)cc1OC | 102 |
| O=c1c2ccccc2[nH]c(=S)n1CCN1CCC(=C(c2ccc(F)cc2)c2ccc(F)cc2)CC1 | 102 |

Block 2
Structure (SMILES): O=C(Nc1cnn(-c2csc(C(=O)NC3COC3)c2)c1)Nc1ccccc1Cl
Tested at: 5 µM
| target | assay | how to read | remaining activity |
| --- | --- | --- | --- |
| CDC42BPG (Homo sapiens, UniProt Q6DT37) | enzyme activity | reference: untreated control | 85.5% |
| MAP4K5 (Homo sapiens, UniProt Q9Y4K4) | enzyme activity | reference: untreated control | 94.6% |
| PRKG2 (Homo sapiens, UniProt Q13237) | enzyme activity | reference: untreated control | 97.4% |
| cGMP-dependent protein kinase 1, isoform beta (PRKG1, Homo sapiens, UniProt Q13976) | kinase activity, kinase panel profiling |  | 87.5% |
| PKN3 (Homo sapiens, UniProt Q6P5Z2) | enzyme activity | reference: untreated control | 92.5% |
| MAPK3 (Homo sapiens, UniProt P27361) | enzyme activity | reference: untreated control | 90.1% |

Block 3
Target: Calcium/calmodulin-dependent protein kinase type II subunit alpha (CAMK2A, Homo sapiens, UniProt Q9UQM7)
UniProt Q9UQM7, sequence (whole entry, looked up): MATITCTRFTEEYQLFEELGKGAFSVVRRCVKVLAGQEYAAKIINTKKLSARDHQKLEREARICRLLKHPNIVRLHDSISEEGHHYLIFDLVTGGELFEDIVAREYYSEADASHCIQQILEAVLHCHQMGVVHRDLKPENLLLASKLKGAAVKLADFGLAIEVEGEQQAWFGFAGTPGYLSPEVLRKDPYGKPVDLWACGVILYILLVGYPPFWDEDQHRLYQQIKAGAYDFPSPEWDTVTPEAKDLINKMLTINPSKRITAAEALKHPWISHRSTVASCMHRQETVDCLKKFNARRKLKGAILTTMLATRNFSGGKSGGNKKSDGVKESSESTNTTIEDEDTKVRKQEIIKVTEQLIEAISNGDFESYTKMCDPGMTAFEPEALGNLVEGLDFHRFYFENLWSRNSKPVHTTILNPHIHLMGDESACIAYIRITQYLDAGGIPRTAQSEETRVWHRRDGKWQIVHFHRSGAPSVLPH
Effect on: enzyme activity
Action: inhibitor
Tested at: 10 µM
| Structure (SMILES) | inhibition |
| --- | --- |
| CC(C)(C(=O)c1cccnc1)c1cccnc1 | -11% |
| CCCCCCCCCCCCCCCCC(C(=O)O)C(O)(CC(=O)O)C(=O)O (centres unmarked) | -40% |
| COc1c(O[C@@H]2O[C@H](CO)[C@@H](O)[C@H](O)[C@H]2O)cc2occ(-c3ccc(O)cc3)c(=O)c2c1O | -25% |
| CCCCCCCCO | -1% |
| COC(=O)Nc1nc2cc(C(=O)c3ccccc3)ccc2[nH]1 | -5% |

Block 4
Host: mouse
Sample: microsomes or S9
Tested at: 2 µM
Time: 0.5 h
| SMILES | remaining compound |
| --- | --- |
| c1ccc(-c2cn3c4ccccc4n(CCN4CCOCC4)c3n2)cc1 | 0.0311% |
| CC1Cc2ccccc2N1C(=O)c1ccc(=O)n(CCC(=O)N2CCN(c3ccccn3)CC2)n1 (centres unmarked) | 0.366% |
| O=C1CCCc2nc(Nc3ccc(F)cc3)ncc21 | 1.91% |
| CCOC(=O)c1ccc(-c2ccc(C3CC(=O)Nc4cc5c(cc43)OCO5)o2)cc1 (centres unmarked) | 50.8% |
| COc1ccc(OCC(=O)N(Cc2ccc(Br)o2)C2CCS(=O)(=O)C2)cc1 (centres unmarked) | > 100% |
| O=c1oc2ccccc2n1Cc1c(-c2ccc(F)cc2)nc2ccccn12 | 3.39% |
| O=C(CN1N=C(c2ccccc2)Cn2c(cc3ccccc32)C1=O)N1CCN2CCCC2C1 (centres unmarked) | 2.11% |
| Cc1c(C(=O)OC(C)C)sc2ncnc(N3CCCCC3)c12 | < 1% |
| O=C(Nc1ccc(Cl)cn1)c1c2c(nc3ccccc13)C(=O)N(C1CCCCC1)C2 | 8.13% |
